Experimental data from different studies.
Target: Histone deacetylase 3 (HDAC3, Homo sapiens, UniProt O15379)
UniProt O15379, sequence (whole entry, looked up): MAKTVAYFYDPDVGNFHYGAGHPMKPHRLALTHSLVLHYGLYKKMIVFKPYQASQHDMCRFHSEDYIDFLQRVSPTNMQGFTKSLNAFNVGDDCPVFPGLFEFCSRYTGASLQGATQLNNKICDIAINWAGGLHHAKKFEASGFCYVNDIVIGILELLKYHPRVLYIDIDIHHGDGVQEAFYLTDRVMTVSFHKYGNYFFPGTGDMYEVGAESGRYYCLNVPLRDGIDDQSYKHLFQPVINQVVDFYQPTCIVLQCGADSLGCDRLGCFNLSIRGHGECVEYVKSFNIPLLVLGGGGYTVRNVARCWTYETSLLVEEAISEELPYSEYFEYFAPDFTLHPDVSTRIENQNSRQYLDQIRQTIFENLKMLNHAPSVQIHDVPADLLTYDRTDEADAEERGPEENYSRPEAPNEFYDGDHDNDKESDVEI
Mode: inhibitor

O=C(CCCCCCN(Cc1cc2ccccc2[nH]1)Cc1cc2ccccc2[nH]1)NO has an IC50 of 1300 nM (enzyme activity, fluorescence).
The IC50 of Nc1ccc(-c2ccc(F)cc2)cc1NC(=O)C1CCC1 is reported as 548 nM (enzyme activity).
Cc1cc(CNCCCCCCC(=O)NO)ccc1F has an IC50 of 190 nM (enzyme activity, fluorescence).
For O=C(NNCCCc1ccccc1)c1ccc(Br)cc1, the IC50 was 24200 nM (enzyme activity).
With O=C(C=Cc1ccc2c(c1)C(=O)N(Cc1ccccc1)CC2)NO the IC50 was 200 nM (enzyme activity).
With O=C(CCCCCCN(Cc1ccccc1)Cc1ccccc1)NO the IC50 was 1100 nM (enzyme activity, fluorescence).
O=C(CCCCCCNC(=O)c1cc(C(=O)c2ccccc2)cn1Cc1ccc(F)cc1)NO has an IC50 of 1150 nM (enzyme activity).
The IC50 of O=C(CCCCCCN(Cc1ccc([N+](=O)[O-])cc1)Cc1ccc([N+](=O)[O-])cc1)NO is reported as 1400 nM (enzyme activity, fluorescence).
With COC(=O)c1ccc(Cn2sc3ccccc3c2=O)cc1 the IC50 was 8200 nM (enzyme activity).
Nc1ccc(-c2ccc(F)cc2)cc1NC(=O)N1CCC1 has an IC50 of 1750 nM (enzyme activity).
O=c1c2ccccc2sn1Cc1ccccc1 gave an IC50 of 5010 nM (enzyme activity).
O=C(CCCCCCNCc1cccnc1)NO has an IC50 of 310 nM (enzyme activity, fluorescence).
With O=c1[nH]sc2ccccc12 the IC50 was > 10000 nM (enzyme activity).
The IC50 of Nc1ccc(-c2cccs2)cc1N is reported as > 33300 nM (enzyme activity).
The IC50 of COCc1cc2c(cn1)CN(C(=O)Nc1nc(-c3ccc(F)cc3)ccc1N)C2 is reported as > 30000 nM (deacetylase activity; co-expressed with NCOR2).
With O=C(CCCCCCC(=O)Nc1ccc(-[c-]2cccc2)cc1)NO.[Fe+2].c1cc[cH-]c1 the IC50 was 9 nM (enzyme activity, fluorescence).
For O=C(O)c1ccc(Cn2sc3ccccc3c2=O)cc1, the IC50 was 5300 nM (enzyme activity).
The IC50 of O=C(CCCCCCC(=O)Nc1ccccc1-[c-]1cccc1)NO.[Fe+2].c1cc[cH-]c1 is reported as 8 nM (enzyme activity, fluorescence).
For O=C(CCCCCCNCc1ccc2c(c1)OCO2)NO, the IC50 was 170 nM (enzyme activity, fluorescence).
With Cc1ncc2c(n1)CN(C(=O)Nc1nc(-c3cccs3)ccc1N)C2 the IC50 was > 30000 nM (deacetylase activity; co-expressed with NCOR2).

For quick reference, copied from above:
The IC50 of Nc1ccc(-c2ccc(F)cc2)cc1NC(=O)C1CCC1 is reported as 548 nM (enzyme activity).
